Measurements pooled from the literature.
A part holds a random share of what one study measured. Changes are numbered by the printed parent chain.

Series 1
Target: Protein C-ets-1 (ETS1, Homo sapiens, UniProt P14921, residues 1-441, full length assumed)
Technique: protein-binding microarray
Molecule type: double-stranded DNA, one strand shown
Sample: in vitro
Tested at: not given
Setting: k-mer, scored over probes, only values ≥0.25
Reading: higher = stronger binding
Strand | E-score
TGAGGAAA | 0.316
CGGATAAC | 0.372
CCCTTCCG | 0.469
CATCCTAG | 0.253
CGCGTATC | 0.251
GCGGAAAC | 0.473
CCGGTACG | 0.294
GGAAATAA | 0.416
GATGTGAC | 0.35
TTAGGAAA | 0.279
CAGGATGG | 0.402
CGGACACA | 0.288
AGGTTCCG | 0.318
TTCAGGAA | 0.331
GCGGATAA | 0.261
CACCGGTG | 0.33
AGGTATCC | 0.319
CCCCCGGA | 0.393
CCGGTGCA | 0.351
ATCCTGCC | 0.371
TGCTGGAA | 0.267
CGCCAGGA | 0.304

Series 2
Target: CCNB3, cyclin fold, Cln2 fusion (human)
Technique: yeast growth competition, sequencing
Sample: yeast
Setting: strong parent motif
Baseline: not given
Reading: higher = stronger binding
Starting sequence: PPP1R3F docking peptide (human); VAPRRVLFADEAL
Change | normalised enrichment score
VAPRRALFADEAL [V6A] | 0.436
VAARRVLFADEAL [P3A] | 1.47
VAPARVLFADEAL [R4A] | 0.887
AAPRRVLFADEAL [V1A] | 1.22
VAPRKVLLADEAL [R5K F8L] | 0.0968
VAPRAVLFADEAL [R5A] | 0.506

Series 3
Target: UBE2V2 UBC core domain (UniProt Q15819)
Technique: yeast two-hybrid
Sample: yeast
Setting: mostly zero background
Baseline: not given
Reading: higher = stronger interaction
B1: RNF133 RING domain (UniProt Q8WVZ7); chain DEEINPNGDSCVICFERYKPNDIVRILTCKHFFHKNCIDPWILPHGTCPICKCDILKVLGIQ
B2: MDM4 RING domain (UniProt O15151); chain MEDCQNLLKPCSLCEKRPRDGNIIHGRTGHLVTCFHCARRLKKAGASCPICKKEIQLVIKVF
B3: SYTL4 RING domain (UniProt Q96C24); chain RGSQHYSDRTCARCQESLGRLSPKTNTCRGCNHLVCRDCRIQESNGTWRCKVCAKEIELKKAT
B4: DZIP3 RING domain (UniProt Q86Y13); chain PDEEEEEEEPCVICHENLSPENLSVLPCAHKFHAQCIRPWLMQQGTCPTCRLHVLLPEEFP
Target sequence (chain): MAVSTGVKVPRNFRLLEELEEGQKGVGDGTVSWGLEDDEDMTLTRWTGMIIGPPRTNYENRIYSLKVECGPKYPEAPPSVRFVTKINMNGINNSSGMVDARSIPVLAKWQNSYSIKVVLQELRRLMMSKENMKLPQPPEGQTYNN
Sequence | lacZ reporter activity
GSDDEEIPFKCFICRQSFQNPVVTKCRHYFCESCALQHFRTTPRCYVCDQQTNGVFNPA (RNF113A RING domain (UniProt O15541)) | 0
KETIKKTTKPCPRCHVPVEKNGGCMHMKCPQPQCRLEWCWNCGCEWNRVCMG (PRKN RING domain (UniProt O60260)) | 0
B1 (RNF133 RING domain) | 0
YQNEVDDDLVCHICLQPLLQPLDTPCGHTFCYKCLRNFLQEKDFCPLDRKRLHFKLCKK (LNX2 RING domain (UniProt Q8N448)) | 0
PEDRESLKSACVVCLSSFKSCVFLECGHVCSCTECYRALPEPKKCPICRQAITRVIPLY (MUL1 RING domain (UniProt Q969V5)) | 0
GSRLQEINDVCAICYHEFTTSARITPCNHYFHALCLRKWLYIQDTCPMCHQKVYIEDDIK (RNF139 RING domain (UniProt Q8WU17)) | 0
B2 (MDM4 RING domain) | 0
B3 (SYTL4 RING domain) | 0
B4 (DZIP3 RING domain) | 0

Series 4
Target: NFIL3, bZIP domain (human)
Technique: DHFR protein complementation
Sample: yeast
Setting: single substitutions, most at no-binding floor
Baseline: wild-type JUN-FOS pair
Reading: higher = stronger binding
Starting sequence: JUN, bZIP domain (human); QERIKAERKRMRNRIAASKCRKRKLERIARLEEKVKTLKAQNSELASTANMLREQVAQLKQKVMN; partner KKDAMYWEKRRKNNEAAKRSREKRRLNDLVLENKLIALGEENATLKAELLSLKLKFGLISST
Change | binding fitness
Q41N | -1.51 natural log
A49H | -1.52 natural log
N42Q | -1.47 natural log
S47C | -1.54 natural log
N42A | -1.54 natural log
Q41I | -1.27 natural log
S47G | -1.42 natural log
S43K | -1.19 natural log
A40G | -1.39 natural log
E54R | -1.48 natural log
L45N | -1.52 natural log
R30G | -1.33 natural log
Q41L | -1.45 natural log
M51R | -1.45 natural log
A29W | -1.36 natural log
I28M | -1.18 natural log
A46F | -1.51 natural log

Repeated from above (series 2):
Change | normalised enrichment score
VAPRRALFADEAL [V6A] | 0.436
VAARRVLFADEAL [P3A] | 1.47
VAPARVLFADEAL [R4A] | 0.887
AAPRRVLFADEAL [V1A] | 1.22
